Experimental data pooled from the literature.
Parts stem from different laboratories: compare values within a part only. Substitutions count along the parent as printed.

Study 1 — technique: RNA Bind-n-Seq; form: RNA; medium: in vitro; tested at: not given; reference: input RNA pool; direction: higher = stronger binding
Target: RING finger protein unkempt homolog, zinc fingers 1-6, GST-SBP tag (UNK, Homo sapiens, UniProt Q9C0B0, residues 30-357)
Chain of UniProt Q9C0B0 (30-357, looked up): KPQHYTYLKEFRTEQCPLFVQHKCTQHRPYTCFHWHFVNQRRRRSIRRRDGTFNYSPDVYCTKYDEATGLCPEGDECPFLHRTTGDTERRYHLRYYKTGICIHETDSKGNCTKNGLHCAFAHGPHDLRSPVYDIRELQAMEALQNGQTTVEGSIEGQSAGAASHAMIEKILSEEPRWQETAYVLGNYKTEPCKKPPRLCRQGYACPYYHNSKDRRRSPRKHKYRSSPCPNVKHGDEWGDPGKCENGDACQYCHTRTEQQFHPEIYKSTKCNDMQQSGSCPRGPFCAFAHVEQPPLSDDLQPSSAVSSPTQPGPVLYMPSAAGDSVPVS
Setting: RNA with constant flanks, human and mouse sites, ends assumed
With `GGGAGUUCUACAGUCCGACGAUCACGUGAUUUGGAGAGAGGUGUGGAAAUCUGUAUUGCAACACCUGGAAGACUGAUUGACUUUUUAGAGUGUGGAAAAACCAAUCUGAGAAGAACAACCUACCUUGUCCUUGAUGAAGCAGACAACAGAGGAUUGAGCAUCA` the bound/input enrichment was 0.17 ratio.
With `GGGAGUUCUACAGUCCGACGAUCAAGUCCCUGUUAUACUGAGUCAAAUCCAUUUUCUGGGUGAAUAAAUUUGGCCCUGCAGUGUAGCUCUUGUUCACCCUUUCCUUCCUUGGUGUUGUGUGUGAGAGAUGAGUGUUUUCCUGUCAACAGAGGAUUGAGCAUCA` the bound/input enrichment was 0.184 ratio.
`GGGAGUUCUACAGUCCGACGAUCAGGCACUAUCUCAUUCAUACUGGUCAAAAGCCAUUUGAAUGUGAUGUGUGUCAUAAAACCUUUAGACAACUAGUUCAUCUGGAGAGGCAUCAACUAACUCAUAGUCUGCCUUUUAAAUGUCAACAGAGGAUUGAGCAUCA` has a bound/input enrichment of 0.318 ratio.
For `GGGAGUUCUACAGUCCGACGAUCUUUCAUAAGCUAAAUUGUAUGUAUAAAACAUUUGCAGUGUUUCAGACACUGUUGAACAAAAAUGUAAUUGGUAAGUAUGUAUCCAAACAGGCAUGGGGUUUCCUGAUACAUUAUGUGUUUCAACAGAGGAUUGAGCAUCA`, the bound/input enrichment was 0.341 ratio.
`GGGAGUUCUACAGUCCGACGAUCGACAUGCUGUAUACCGAGACAGAUUUGGAAGAAAGCAUGGACAAAAUUGAAACUAUCAACUUUCAUGAAGUUAAGGAAGUUGCGGGAAUCAAGUUUUGGUGUUACCAUGCAGGUCACGUCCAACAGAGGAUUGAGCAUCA` gave a bound/input enrichment of 0.174 ratio.
`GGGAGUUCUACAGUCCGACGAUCUAUAAGCCCAUUCAGAGUCCCAGAGGGAGCAAGCUUCCUAUUCCAGUGAAAUCCAUCCUACCUGGAGCCAAGCCUGGCCAUAUCCUGACAAACGGAGUUAGUUCCAGUUUCCUUAACAGGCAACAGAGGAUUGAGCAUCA` gave a bound/input enrichment of 0.249 ratio.
`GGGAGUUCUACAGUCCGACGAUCCUGUCUGAUAUCAUGGUCUCCCUGGCAAAUGCGUCAACUUUGCAGAAGGAUUGCAGUUGGAUAGAAAUGAUAAGGAAAUUUGUAACAGAGACCCUUGAAGAUGGCUCUAGGCUAAAUAGUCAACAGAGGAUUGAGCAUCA` gave a bound/input enrichment of 1.58 ratio.
For `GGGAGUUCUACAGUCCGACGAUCAAAAUCCUCCCUCAAAGGAUUCGGGAGCUGGUACCCGAGUCCCAGGCUUACAUGGACCUCCUAGCAUUUGAGAGGAAACUGGAUCAAACCAUCAUGCGGAAGCGGGUGGACAUCCAGGAGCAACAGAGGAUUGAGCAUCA`, the bound/input enrichment was 0.184 ratio.
For `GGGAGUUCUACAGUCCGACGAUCCGUGAAACCUAUUCUUAGCUCACAGGCCAUGGAGAAGCUGGUGGGGACCAGACCCAGCUCCUUAGCUGGCUGGGCUGGGGAGGGGGUAGUGACAGUGGCAGCUGCUACUCACUGCUCAGUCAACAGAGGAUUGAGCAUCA`, the bound/input enrichment was 0.11 ratio.
With `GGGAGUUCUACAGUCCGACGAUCGGUGUUUUUUUUCUGGAUAUCACAUUUUCUUCAGAUUAUCCAUUUAAGCCACCAAAGGUUACUUUCCGUACCAGAAUCUAUCACUGCAACAUCAACAGUCAGGGAGUCAUCUGCCUGGAUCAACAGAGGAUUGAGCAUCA` the bound/input enrichment was 0.188 ratio.
`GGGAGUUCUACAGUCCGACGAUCGCCAUGUUAGUAGAAAACACUAAGGAAGAAGUAAUUGUGAGGAGUAAAGACAAAGAGGAUUUAGUUUGUAGUGCAGCCCUUCAUAAUCCACAAGAGUCACCUGCGACCCUUACUAAAGUGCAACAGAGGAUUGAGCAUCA` has a bound/input enrichment of 1.21 ratio.

Study 2 — technique: RNA Bind-n-Seq; form: RNA; medium: in vitro; tested at: 365 nM; reference: no-protein control; direction: higher = stronger binding
Target: RNA binding protein fox-1 homolog 2, RRM domain, GST-SBP tag (RBFOX2, Homo sapiens, UniProt O43251-10, residues 100-194)
Setting: natural RNA segment, single round, ends assumed
Residues (chain): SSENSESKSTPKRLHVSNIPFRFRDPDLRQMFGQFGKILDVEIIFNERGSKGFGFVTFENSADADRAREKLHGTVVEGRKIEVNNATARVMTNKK
`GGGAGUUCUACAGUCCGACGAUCUACAUAAAUGCCUUGUGGCAGAGCUCCCGGUGAACUUCUGGAUCCCGUUUCUGAUGCAGACUCUUGUCUUGUUCUCCACUUGUGCUGUUAGAACUCACUGGCCCAGUGGUUGGAAUUCUCGGGUGCCAA` — result for “RBNS enrichment (R)”: 1.11.
Under “RBNS enrichment (R)”, `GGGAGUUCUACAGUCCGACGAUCAUUACUUCUAAAGAAUCAUCAGUGUAUAGAUUAGAAGUGCUCAUUACCUGCAACUUUUAAAAAAAAUUCAGUUAUAGCUGCUUUUGAAGAGGUUUCCAUUUUUAUUUAAAUGGAAUUCUCGGGUGCCAA` is recorded as 0.886.
For `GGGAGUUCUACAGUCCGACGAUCAGGAAAGGUGCUACUGUGUGGGUCUGGAACCUGUGAAUGAAUCACUCCUGGGGUUUCGUUUCUAUGUGAGAGACGGGGACCCGGUUCUGUUGUGUGCAGCUUUAGCGGCAUGGAAUUCUCGGGUGCCAA`, “RBNS enrichment (R)” read 0.631.
For `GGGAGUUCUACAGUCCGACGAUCGUCCACAAAACUGAUGUUCUUUUGGGGUUUUAUGUACAGACUUGUCCAAUCAUGUGUGUGGUUCCUGCGAGUUGCUGAUGACUCCGCAUUGAAGCUCUCUGAGUUCUUUGUGGAAUUCUCGGGUGCCAA`, “RBNS enrichment (R)” read 0.624.
Under “RBNS enrichment (R)”, `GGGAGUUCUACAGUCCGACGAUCAGAACUCCCUGUCUGAAAAGGAUGCCGAGCCUUGUGCUCAGCAGAGGGAAGUUUGGCUAAUGGGCUGAUCGAAUGAGCUAACAUGGGCUGGGGCAGGCAACUACCCGUCCUGGAAUUCUCGGGUGCCAA` is recorded as 0.541.
Under “RBNS enrichment (R)”, `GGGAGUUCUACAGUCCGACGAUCAUAUGGUUUUGUCAGGUGUGUAAAUUUGCAAAUUGUUUCCUUUAUAUAUGUAUGUAUAUAUAUAUAUGAAAAUAUAUAUAUAUAUGAAAAAUAAAGCUUAAUUGUCCCAGUGGAAUUCUCGGGUGCCAA` is recorded as 1.67.
For `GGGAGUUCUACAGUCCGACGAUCUAGGACUCUGGAGUAUGCAGACUUGGCCAUUCGUCCAUUGUGGCCUGCGGGUCGCACCCCAGGCAUACUGAAAGGCCAUACUCGUGGCUGGCUGCCUGCGGGCCUAAGCCUGGAAUUCUCGGGUGCCAA`, “RBNS enrichment (R)” read 3.3.
`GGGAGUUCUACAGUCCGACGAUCCAAAAGAGAAGUCUGUGCACCUCAAGUGAGGUCCCAGGAGCUUUCCUCGCCCUCCAAACCAAGCAUUGAGGGUAACCCUCAGAACCCAUUCUCCUAUCUCCUAAAGUGUCUGGAAUUCUCGGGUGCCAA` — result for “RBNS enrichment (R)”: 0.364.
Under “RBNS enrichment (R)”, `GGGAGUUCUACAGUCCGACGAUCGCAGCAGAGUGAGGAGAUGAAGCUUACGUGUCCUGACGUUUUGUUGCUUAUACUGUGAUAUCUCAUCCUAGCUAAGCUCUAUAAUGCCCAAGACCCCAAACAGUACUUUUUGGAAUUCUCGGGUGCCAA` is recorded as 0.318.

Study 3 — technique: RNA Bind-n-Seq; form: RNA; medium: in vitro; tested at: 200 nM; setting: whole 134-nt RNA, ends assumed; added: 150 mM KCl; reference: input library; direction: higher = stronger binding
Target: Ras GTPase-activating protein-binding protein 1, full length (G3BP1, Homo sapiens, UniProt Q13283)
Chain of UniProt Q13283 (whole entry, looked up): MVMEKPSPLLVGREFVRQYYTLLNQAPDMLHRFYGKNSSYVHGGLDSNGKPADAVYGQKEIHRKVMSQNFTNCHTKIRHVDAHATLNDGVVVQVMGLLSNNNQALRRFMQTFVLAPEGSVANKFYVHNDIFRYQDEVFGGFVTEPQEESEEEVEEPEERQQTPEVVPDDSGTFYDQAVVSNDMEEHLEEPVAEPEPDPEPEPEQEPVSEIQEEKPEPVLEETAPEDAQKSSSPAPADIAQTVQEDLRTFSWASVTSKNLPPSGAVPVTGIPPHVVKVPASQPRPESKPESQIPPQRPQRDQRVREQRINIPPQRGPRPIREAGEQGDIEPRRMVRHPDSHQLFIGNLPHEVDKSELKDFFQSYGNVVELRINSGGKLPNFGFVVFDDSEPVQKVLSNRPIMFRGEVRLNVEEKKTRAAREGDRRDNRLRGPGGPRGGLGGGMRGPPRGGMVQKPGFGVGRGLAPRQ
`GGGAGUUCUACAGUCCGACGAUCGCAGGAAGUAAAAACAAAUGGAAAUGCUUCGGAUAGUGGCUGGGGUGGGGGUUGCUAAGGAAAGGGUGGGAUGGGAGUGGGUAAAGAGUUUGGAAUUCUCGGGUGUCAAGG` has a log2 enrichment of 0.947.
The log2 enrichment of `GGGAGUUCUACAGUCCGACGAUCUAACUUUAGAGGAGGAUCUGAUGGAUAUGGCAGUGGACGUGGAUUUGGGGAUGGCUAUAAUGGGUAUGGAGGAGGACCUCGAGGUGGCAAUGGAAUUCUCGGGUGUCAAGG` is reported as -0.0586.
`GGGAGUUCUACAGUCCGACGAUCUCAAGUCCUGUGCUACACAUCGUAUGUACCGAAUCGGAAAGGAAAGGGAAAGGGAAAGUAUUAUGUUACGCCGUUCGGAUCUGCACUUCCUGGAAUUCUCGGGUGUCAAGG` gave a log2 enrichment of -0.749.
With `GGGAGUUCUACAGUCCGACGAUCUGGCCCUGGUGGCAUGCGGGGAGGAAGAGGUGGCCCCAUGGAUCGUGGUGGUCCCGGUGGAAUGUUCAGAGGUGGCCGUGGUGGAGACAGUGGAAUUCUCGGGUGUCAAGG` the log2 enrichment was 0.288.
With `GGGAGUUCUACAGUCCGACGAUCUCCUGUGCUACACAUCGUAUGUACCGAAUCGGUUUUUUGGGUUUUUUGGGUUUUUUGGGGAAAGUAUUAUGUUACGCCGUUCGGAUCUGCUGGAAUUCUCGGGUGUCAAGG` the log2 enrichment was -0.469.
`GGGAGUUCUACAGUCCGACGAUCACCAUGCAGGUGGGCAUCUUUGGGAAGUGGGGCAAGGGGGGGAUAGGGAGGGGGUUAACACUUUGGGAACAGGUGGUCCCAGGUCGUUUCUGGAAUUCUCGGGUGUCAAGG` gave a log2 enrichment of 1.51.
`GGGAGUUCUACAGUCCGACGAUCCCUCAAGUCCUGUGCUACACAUCGUAUGUACCGAAUCGGAGGGAGGGGAGGGGAAAGUAUUAUGUUACGCCGUUCGGAUCUGCACUUCCAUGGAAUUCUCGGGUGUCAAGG` has a log2 enrichment of 0.808.
The log2 enrichment of `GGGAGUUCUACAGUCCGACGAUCACCUUCACGGCAUGGUGCAACUCCCACCUGCGGAAGGCAGGCACACAGAUCGAGAACAUUGAUGAGGACUUCCGAGACGGGCUCAAGCUCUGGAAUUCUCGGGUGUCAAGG` is reported as 1.07.
The log2 enrichment of `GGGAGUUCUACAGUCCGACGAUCGCAGGAAGUAAAAACAAAUGGAAAUGCUAAAGAUAGUGGCAGGGGUGGGGGUUGCUAAGGAAAGGGUGGGAUGGGAGUGGGUAAAGAGUUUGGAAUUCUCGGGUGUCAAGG` is reported as 1.34.
With `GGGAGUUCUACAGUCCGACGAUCGUCCUGUGCUACACAUCGUAUGUACCGAAUCGGGAAAAAGGGUUUUUGGGUUUUUGGGAAAGUAUUAUGUUACGCCGUUCGGAUCUGCACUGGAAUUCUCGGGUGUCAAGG` the log2 enrichment was -0.597.

Study 4 — target: CCND1, cyclin fold, Cln2 fusion (human); technique: yeast growth competition, sequencing; medium: yeast; setting: weak parent motif; reference: not given; direction: higher = stronger binding
Starting sequence: PKMYT1 docking peptide (human); SFEPRNLLSLFED
`R5A L7A` — result for “normalised enrichment score”: 0.852.
`L8N`: “normalised enrichment score” 1.02.
`F2R` — result for “normalised enrichment score”: 0.366.
For `P4W`, “normalised enrichment score” read 0.521.
`S1V` — result for “normalised enrichment score”: 1.16.
Under “normalised enrichment score”, `N6C` is recorded as 1.5.
`D13Y`: “normalised enrichment score” 1.11.
`S1P`: “normalised enrichment score” 0.191.
`E3I`: “normalised enrichment score” 0.149.
`L8A` — result for “normalised enrichment score”: 0.977.
`P4T`: “normalised enrichment score” 1.44.
Under “normalised enrichment score”, `F2H` is recorded as 0.437.
For `F11K`, “normalised enrichment score” read 0.619.
`P4E`: “normalised enrichment score” 0.931.
`D13E`: “normalised enrichment score” 0.487.
`R5M`: “normalised enrichment score” 1.36.
Under “normalised enrichment score”, `R5P` is recorded as 0.94.
Under “normalised enrichment score”, `S1H` is recorded as 0.102.
`E3S`: “normalised enrichment score” 0.726.
`F11G`: “normalised enrichment score” 0.772.
`D13F` — result for “normalised enrichment score”: 1.66.
Under “normalised enrichment score”, `D13W` is recorded as 0.397.
Under “normalised enrichment score”, `R5D` is recorded as 1.19.
Under “normalised enrichment score”, `R5N` is recorded as 1.61.
